Assay results pooled from the literature.
Numbered parts are unrelated; each lists some results of a single study. Substitutions count along the parent as printed.

Sample 1
Target: CCND1, cyclin fold, Cln2 fusion (human)
Technique: yeast growth competition, sequencing
Medium: yeast
Notes: weak parent motif
Relative to: not given
Reading: higher = stronger binding
Measurement: normalised enrichment score
Starting sequence: SAMHD1 docking peptide (human); ASKSRVQLFKDDP
ASDSRVQLFKDDP [K3D]: 0.902
ASKSVVQLFKDDP [R5V]: 0.91
ASKSFVQLFKDDP [R5F]: 0.392
ASKSRVGLFKDDP [Q7G]: 0.208
ASASRVQLFKDDP [K3A]: 0.937
ASKSRVQTFKDDP [L8T]: 0.327
ASKSRVQLFKDTP [D12T]: 0.381
ASKSNVQLFKDDP [R5N]: 0.205
ASKHRVQLFKDDP [S4H]: 0.633
ASKNRVQLFKDDP [S4N]: 0.552
ASKSRVQLFKDYP [D12Y]: 0.629
ASKSRVQLFKMDP [D11M]: 0.394
ASKSRVQLFKCDP [D11C]: 0.318

Sample 2
Target: Interferon regulatory factor 7, full length, phosphomimetic (IRF7, Homo sapiens, UniProt Q92985, residues 1-503, S471D/S472D/S475D/S476D/S477D/S483D/S484D/S487D)
Technique: protein-binding microarray
Molecule type: double-stranded DNA, one strand shown
Medium: in vitro
Concentration: 2200 nM top
Notes: 60-bp whole probe
Added: salmon DNA 0.4 mg/ml
Relative to: random background probes
Reading: higher = stronger binding
Measurement: fitted relative affinity
Shared flanks, not repeated: GCCTAGCAC … GTCTTGATTCGCTTGACGCTGCTG
Construct (chain): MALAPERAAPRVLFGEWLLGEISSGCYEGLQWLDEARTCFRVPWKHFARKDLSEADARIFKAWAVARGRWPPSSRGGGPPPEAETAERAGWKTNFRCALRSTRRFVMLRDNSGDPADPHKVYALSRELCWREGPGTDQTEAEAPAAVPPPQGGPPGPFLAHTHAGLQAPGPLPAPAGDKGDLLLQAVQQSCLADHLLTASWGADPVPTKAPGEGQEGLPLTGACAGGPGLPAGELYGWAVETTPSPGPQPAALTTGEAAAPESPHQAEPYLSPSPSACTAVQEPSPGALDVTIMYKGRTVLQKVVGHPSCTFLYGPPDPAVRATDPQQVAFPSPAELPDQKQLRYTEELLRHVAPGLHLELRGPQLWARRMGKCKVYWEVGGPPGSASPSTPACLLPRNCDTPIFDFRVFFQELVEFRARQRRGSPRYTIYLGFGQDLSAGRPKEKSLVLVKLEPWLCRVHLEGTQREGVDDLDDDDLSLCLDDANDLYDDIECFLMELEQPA
GACGATATCAGACTAGAGACGTGCTAG: -0.0261 z-score
TTAGAACCGAGTTTCGATTAGTGCTAG: 4.2 z-score
GACGTTTTCGGGACTGGAGACGTGCTA: 3.2 z-score
TTAGATCTCAGACTGGGTTAGTGCTAG: -0.332 z-score
TTAGGTATCGGACTGGGTTCGTGCTAG: 0.151 z-score
GGTGGTGATGGTGAGTAAGAGTGCTAG: -0.71 z-score
GACGGTTTCGGAACTGGGGACGTGCTA: 4.44 z-score
GATGGTTTCGGTATCGGGACGTGCTAG: 8.07 z-score
GACGGATTGGACTATCGGGACGTGCTA: -0.0557 z-score
TTAGGTATCCTCATCCTTTAGTGCTAG: 0.905 z-score
TTAGATCTCACTCTCGATTAGTGCTAG: 0.876 z-score
TCAGATCTGCCGTCCCACACTGTGCTA: 1.12 z-score

Sample 3
Target: Fragile X messenger ribonucleoprotein 1, C-terminal low-complexity region (Fmr1, Mus musculus, UniProt P35922)
Technique: RNA Bind-n-Seq
Molecule type: RNA
Medium: in vitro
Concentration: 200 nM
Notes: whole 134-nt RNA, ends assumed
Added: 150 mM KCl
Relative to: input library
Reading: higher = stronger binding
Measurement: log2 enrichment
Shared flanks, not repeated: GGGAGUUCUACAGUCCGACGAUC … UGGAAUUCUCGGGUGUCAAGG
CCUCAAGUCCUGUGCUACACAUCGUAUGUACCGAAUCGGAAAAAGGAGGUGGAAAGUAUUAUGUUACGCCGUUCGGAUCUGCACUUCCAG: 0.277
AAGUCCUGUGCUACACAUCGUAUGUACCGAAUCGGGUUUGGGAAAAAGGGAAAGGGAAAGUAUUAUGUUACGCCGUUCGGAUCUGCACUU: 0.632
UUGUUCUGGCAUAAACAUAACAUUGAGAAGUCCCUUGCUGAUCUCCCUAAUUUCACUCCCUUUCCGGAUGAGUGGACAGUGGAAGAUAAA: -0.19
GCAGGAAGUAAAAACAAAUGGAAAUGCUUCGGAUAGUGGCAGGGGUGGGGGUUGCUAAGGAAAGGGUGGGAUGGGAAUGGGUAAAGAGUU: 0.127
GCAGGAAGUAAAAACAAAUGGAAAUGCUUCGGAUAGUGGCAGGGGUGGGGGUUGUUAAGGAAAGGGUGGGAUGGGAGUGGGUAAAGAGUU: 0.00248
UCGGCUACACUGCCCGGAGAAUUCUCAAUGAGGAUGGCAGCCCUAACCUGGACUUCAAGCCUGAAGACCAGCCCCAUUUUGACAUCAAGG: -0.0864
UCAAGUCCUGUGCUACACAUCGUAUGUACCGAAUCGGGUUUUUGGGUGGGAGGGAAAGUAUUAUGUUACGCCGUUCGGAUCUGCACUUCC: 1.14
CUCAAGUCCUGUGCUACACAUCGUAUGUACCGAAUCGGGAAAGGGAGGGAGGGAAAGUAUUAUGUUACGCCGUUCGGAUCUGCACUUCCA: 1.22
GCAGGAAGUAAAAACAAAUGGAAAUGCUUCGGAUAGUGGAAAGGGUGGGGGUUGCUAAGGAAAGGGUGGGAUGGGAGUGGGUAAAGAGUU: 0.203
UUCCUCAGGGUAGAACUGGAUGACUCAGACGUGUUCCAUGGUGAACCUGAACCUGAGGAGCUGCCUGGAGGUAAGGGCCCUGAACUGUCC: -2.62
UGUGCUACACAUCGUAUGUACCGAAUCGGGGAAAAAAAGGGGAAAAAGGGGUUUUUUUGGGGAAAGUAUUAUGUUACGCCGUUCGGAUCU: 0.167
UCCUCAAGUCCUGUGCUACACAUCGUAUGUACCGAAUCGGGCGGCGGGGCGGAAAGUAUUAUGUUACGCCGUUCGGAUCUGCACUUCCAG: 0.0358

Sample 4
Target: Histone acetyltransferase KAT6A, winged helix 2, GST fusion (KAT6A, Homo sapiens, UniProt Q92794, residues 85-181)
Technique: protein binding microarray
Molecule type: double-stranded DNA, one strand shown
Medium: in vitro
Concentration: not given
Notes: 8-mer, flanks averaged, mean of 2 arrays, mostly near background
Relative to: not given
Reading: higher = stronger binding
Measurement: E-score
Residues (chain): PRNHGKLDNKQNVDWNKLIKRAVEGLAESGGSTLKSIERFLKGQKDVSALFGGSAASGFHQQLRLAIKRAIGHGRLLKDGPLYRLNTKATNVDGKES
CTGTTAAA: -0.035
AAAGAAGA: -0.0322
ATTCTAGA: 0.0194
CTAAACCA: 0.0558
CCGCCCCG: 0.357
CAATTAAA: 0.0506
GAAACCGA: 0.0449
CGTGAAGA: 0.0241
TGTTCTAA: 0.0739
GTAGATAC: -0.0997
CGTCATAG: -0.04
CGGATCAC: 0.0609
GACAATGA: -0.158
ATGACTTC: -0.171
ACCAATGC: 0.0372
AGTGCGTC: 0.0304
AGGCGGAA: 0.164
CGTTGGTC: -0.0978

Sample 5
Target: RING finger protein unkempt homolog, zinc fingers 1-6, GST-SBP tag (UNK, Homo sapiens, UniProt Q9C0B0, residues 30-357)
UniProt Q9C0B0, sequence (30-357, looked up): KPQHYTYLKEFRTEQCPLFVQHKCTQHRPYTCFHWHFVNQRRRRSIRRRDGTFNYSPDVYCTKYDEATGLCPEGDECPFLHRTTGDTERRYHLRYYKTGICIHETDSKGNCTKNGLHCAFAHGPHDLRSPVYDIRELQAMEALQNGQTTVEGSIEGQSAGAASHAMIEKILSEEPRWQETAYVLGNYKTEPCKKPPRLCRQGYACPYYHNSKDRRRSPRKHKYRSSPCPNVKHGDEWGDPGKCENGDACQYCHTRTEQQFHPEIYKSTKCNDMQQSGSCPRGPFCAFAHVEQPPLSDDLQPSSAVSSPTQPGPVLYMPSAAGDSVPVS
Technique: RNA Bind-n-Seq
Molecule type: RNA
Medium: in vitro
Concentration: not given
Notes: RNA with constant flanks, human and mouse sites, ends assumed
Relative to: input RNA pool
Reading: higher = stronger binding
Measurement: bound/input enrichment
Shared flanks, not repeated: GGGAGUUCUACAGUCCGACGAUC … CAACAGAGGAUUGAGCAUCA
UUCCACCUGUAUUAGUUAUCUAUUGCUGUGUAAAAAAUUACCCUAAAUUUAGUAUGUUAAAAUAGUAAACAUUAUCUGUCAGUUUCUGUGGGUUAAGAAUUUGGGAGUAGUUUAACAUGA: 5.41 ratio
GAGUCUUCACCAACCACCUUACUUGCUACAAAGAAAAAUAUUGGACGAUUUCAUCCCUAUACUAGAUAUGAAAAUAUAACUUUCAAUUGCUGCAAUCACUGCCGGGGAGAACUGAUUGCC: 2.2 ratio
CUCUUAAAAGCCCACAAAAAGGCUAUUCGUAGAGCCACAGUCAACACAUUUGGUUAUAUUGCAAAGGCCAUUGGCCCUCAUGAUGUAUUGGCUACACUUCUGAACAACCUCAAAGUUCAA: 0.167 ratio
CUCCGUCUGCGAUGCAGGGCGGCGGCCUGUAAUCCCAGCGACCGCCAGGAGUGGCAGAAUUUAGUGACAUUUGGAAGCUUUUCAAACAUGGUUCCCUGUAGUCAUCCAUAUAUUGGUACC: 0.458 ratio
CUAGACUUCAAUAAGAAAAUCCUUCACACAGCCUGGCACCCCAAGGAAAAUAUCAUUGCCGUAGCUACUACAAACAAUCUGUAUAUAUUUCAAGACAAAGUGAAUUAGGGUUGGCAUUCC: 0.776 ratio
GUGAAUCCAGGUACAAACUGGGGGGAGUCUCUCAAGCCUGGUCCCCAGCAGAACUGGGCUCAUAAGCCCCAAGACAACAAUGUGAGUAACUGGGGAGGAGCUGCUUCUGUUAAGCAGACA: 0.235 ratio
UCUCCUGAUCUAAUGAGCUUUAUGAUGGAGUUGAAGAUGCUUUUGGAAGUUGCCUUAAAGAAUAGACAAGAGCUGUAUGCACUACCUCCUCCUCCCCAGUUCUACUCAAGCCUUAUUGAA: 0.131 ratio

Sample 6
Target: Homeobox protein Hox-C11, full length (HOXC11, Homo sapiens, UniProt O43248, residues 1-304)
UniProt O43248, sequence (whole entry, looked up): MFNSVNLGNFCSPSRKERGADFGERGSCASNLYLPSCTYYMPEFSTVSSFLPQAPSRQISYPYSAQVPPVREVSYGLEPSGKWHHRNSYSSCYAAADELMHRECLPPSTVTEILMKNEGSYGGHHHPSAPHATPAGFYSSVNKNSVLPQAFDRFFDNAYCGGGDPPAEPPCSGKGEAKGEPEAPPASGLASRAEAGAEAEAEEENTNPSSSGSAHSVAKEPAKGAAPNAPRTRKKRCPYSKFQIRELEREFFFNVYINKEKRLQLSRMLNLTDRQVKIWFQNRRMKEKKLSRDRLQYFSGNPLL
Technique: protein-binding microarray
Molecule type: hairpin DNA
Medium: in vitro
Concentration: not given
Notes: whole hairpin DNA, median over replicate spots
Relative to: not given
Reading: higher = stronger binding
Measurement: median fluorescence
GAGGCCAGGTCGTAAAAGCCTCCTGGCTTTTACGACCTGGCCTCACACTC (5mC at 33): 10500 a.u.
GAGGCCAGGTCGTAAAAGCCTCCTGGCTTTTACGACCTGGCCTCACACTC: 10600 a.u.
GAGGCCAGGCCGTTAAAGCCTCCTGGCTTTAACGGCCTGGCCTCACACTC (5mC at 10): 9240 a.u.
GAGGCCAGGTCGTTGAAGCCTCCTGGCTTCAACGACCTGGCCTCACACTC (5mC at 30): 10300 a.u.
GAGGCCAGGTCGTATAAGCCTCCTGGCTTATACGACCTGGCCTCACACTC: 9860 a.u.
GAGGCCAGGCCGTAAAAGCCTCCTGGCTTTTACGGCCTGGCCTCACACTC (5mC at 10): 9510 a.u.
GAGGCCAGGTCGTTAACGCCTCCTGGCGTTAACGACCTGGCCTCACACTC: 10800 a.u.
GAGGCCTGGTCGTAAAAGCCTCCTGGCTTTTACGACCAGGCCTCACACTC: 9070 a.u.
GAGGCCAGGTCGTTACAGCCTCCTGGCTGTAACGACCTGGCCTCACACTC (5mC at 16): 9920 a.u.
GAGGCCAGGTCGTTTAAGCCTCCTGGCTTAAACGACCTGGCCTCACACTC: 9830 a.u.
GAGGCCAGGTCCGAAAAGCCTCCTGGCTTTTCGGACCTGGCCTCACACTC (5mC at 12): 9110 a.u.
GAGGCCAGGTCCGAAAAGCCTCCTGGCTTTTCGGACCTGGCCTCACACTC: 9140 a.u.
GAGGCCACGTCGTTAAAGCCTCCTGGCTTTAACGACGTGGCCTCACACTC (5mC at 8 36): 9160 a.u.
GAGGCCAGGTCGGTAAAGCCTCCTGGCTTTACCGACCTGGCCTCACACTC (5mC at 32): 10000 a.u.
GAGGCCCGGTCGTTAAAGCCTCCTGGCTTTAACGACCGGGCCTCACACTC: 10200 a.u.

Repeated from above (sample 4):
AGGCGGAA: 0.164
CAATTAAA: 0.0506
CGGATCAC: 0.0609
CGTGAAGA: 0.0241
CGTTGGTC: -0.0978
ACCAATGC: 0.0372
AGTGCGTC: 0.0304
CTAAACCA: 0.0558
GAAACCGA: 0.0449
TGTTCTAA: 0.0739
CGTCATAG: -0.04
GTAGATAC: -0.0997
GACAATGA: -0.158
